Experimental data collected from several papers.
Compare with care: the assays were run in different laboratories.

The maximum inhibition of `Cc1nccn1-c1ccc(Sc2cccc(C3(C(N)=O)CCOCC3)c2)cc1` is reported as 10.8% (human coronavirus OC43; virus-induced cell killing; MRC-5; screen).
`C=CCNc1c(O)cc2c(O)c1C[C@@H](C)C[C@H](OC)[C@H](O)[C@@H](C)/C=C(\C)[C@H](OC(N)=O)[C@@H](OC)/C=C\C=C(/C)C(=O)N2` — result for “patients with fatigue TEAE”: 83% (unresectable or metastatic STS, GIST, other; intravenous, 90 mg/m^2).
Under “patients with adverse event”, `CN1CC[C@@H](c2c(O)cc(O)c3c(=O)cc(-c4ccc(C(F)(F)F)cc4Cl)oc23)[C@@H]1CO` is recorded as 0% (item: Anorexia; B-cell malignancies or AML; oral, 50 mg, continuous dosing).
`Nc1nc2cc(-c3ccc4ncc(C(=O)N5CCOCC5)n4c3)ccc2o1`: “patients with adverse events” 4% (item: Diarrhea, any cause, grade ≥3; patients with advanced solid tumours; dose not given).
Under “patients with TEAE”, `O=C1Nc2cc3[nH]nc(-c4ccncc4)c3cc2CN1Cc1ccccc1` is recorded as 15% (item: abdominal pain; patients with advanced solid tumours; intravenous, dose not given, both schedules pooled).
`CCN(CCO)CCCC(C)Nc1ccnc2cc(Cl)ccc12` (stereo not shown) — result for “patients with adverse event”: 33% (item: Nausea grade 1; newly diagnosed glioblastoma patients; oral, 400 mg/dose, with radiotherapy and temozolomide).
For `Cc1cc(OCCOCCC(F)(F)P(=O)(O)O)ccc1CCc1cnc2c(N)nc3cc(CCC(=O)O)ccc3c2c1`, “patients with non-serious AE” read 13.3% (item: nausea; adults with advanced solid tumours; dose not given, all groups pooled, all grades).
Under “patients with adverse event”, `COc1c(OCCCN2CCOCC2)ccc2c1N=C(NC(=O)c1cnc(N)nc1)N1CCN=C21` is recorded as 86% (item: Nausea; patients with advanced malignancies; intravenous, dose not given, any grade, all cohorts, added: gemcitabine).
`CC(=O)c1c(C)c2cnc(Nc3ccc(C4CCN(CCS(C)(=O)=O)CC4)cn3)nc2n(C2CCCC2)c1=O` — result for “patients with Anemia”: 4.9% (HR+/HER2- advanced breast cancer patients; oral, dose not given, grade 3/4,, total).
The maximum inhibition of `O=C(Nc1ccccc1)Nc1ccc(-c2ccc(C(=O)[C@@H]3CCC[C@H]3C(=O)O)cc2)cc1` is reported as 15.8% (human coronavirus OC43; virus-induced cell killing; MRC-5; screen).

Repeated from above:
The maximum inhibition of `O=C(Nc1ccccc1)Nc1ccc(-c2ccc(C(=O)[C@@H]3CCC[C@H]3C(=O)O)cc2)cc1` is reported as 15.8% (human coronavirus OC43; virus-induced cell killing; MRC-5; screen).
